Measurements gathered from unrelated publications.
Numbered parts are unrelated; each lists some results of a single study. Substitutions count along the parent as printed.
Chain of UniProt P62344 (whole entry, looked up): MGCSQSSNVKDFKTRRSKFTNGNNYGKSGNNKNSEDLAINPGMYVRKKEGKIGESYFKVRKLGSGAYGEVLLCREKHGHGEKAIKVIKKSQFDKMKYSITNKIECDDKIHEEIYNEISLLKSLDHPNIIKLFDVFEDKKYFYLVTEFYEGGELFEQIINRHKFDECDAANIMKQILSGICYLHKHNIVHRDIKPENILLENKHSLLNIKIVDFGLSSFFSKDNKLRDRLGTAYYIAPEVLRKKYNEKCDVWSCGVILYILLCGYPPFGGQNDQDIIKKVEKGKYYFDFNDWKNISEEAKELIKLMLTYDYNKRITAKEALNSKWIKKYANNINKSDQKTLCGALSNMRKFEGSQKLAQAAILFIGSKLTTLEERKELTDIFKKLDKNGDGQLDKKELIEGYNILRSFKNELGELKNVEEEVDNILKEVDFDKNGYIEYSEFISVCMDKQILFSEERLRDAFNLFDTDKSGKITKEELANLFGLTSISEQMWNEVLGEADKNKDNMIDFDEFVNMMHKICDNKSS

Block 1
Target: UDP-N-acetylglucosamine--peptide N-acetylglucosaminyltransferase 110 kDa subunit (OGT, Homo sapiens, UniProt O15294)
Chain of UniProt O15294 (whole entry, looked up): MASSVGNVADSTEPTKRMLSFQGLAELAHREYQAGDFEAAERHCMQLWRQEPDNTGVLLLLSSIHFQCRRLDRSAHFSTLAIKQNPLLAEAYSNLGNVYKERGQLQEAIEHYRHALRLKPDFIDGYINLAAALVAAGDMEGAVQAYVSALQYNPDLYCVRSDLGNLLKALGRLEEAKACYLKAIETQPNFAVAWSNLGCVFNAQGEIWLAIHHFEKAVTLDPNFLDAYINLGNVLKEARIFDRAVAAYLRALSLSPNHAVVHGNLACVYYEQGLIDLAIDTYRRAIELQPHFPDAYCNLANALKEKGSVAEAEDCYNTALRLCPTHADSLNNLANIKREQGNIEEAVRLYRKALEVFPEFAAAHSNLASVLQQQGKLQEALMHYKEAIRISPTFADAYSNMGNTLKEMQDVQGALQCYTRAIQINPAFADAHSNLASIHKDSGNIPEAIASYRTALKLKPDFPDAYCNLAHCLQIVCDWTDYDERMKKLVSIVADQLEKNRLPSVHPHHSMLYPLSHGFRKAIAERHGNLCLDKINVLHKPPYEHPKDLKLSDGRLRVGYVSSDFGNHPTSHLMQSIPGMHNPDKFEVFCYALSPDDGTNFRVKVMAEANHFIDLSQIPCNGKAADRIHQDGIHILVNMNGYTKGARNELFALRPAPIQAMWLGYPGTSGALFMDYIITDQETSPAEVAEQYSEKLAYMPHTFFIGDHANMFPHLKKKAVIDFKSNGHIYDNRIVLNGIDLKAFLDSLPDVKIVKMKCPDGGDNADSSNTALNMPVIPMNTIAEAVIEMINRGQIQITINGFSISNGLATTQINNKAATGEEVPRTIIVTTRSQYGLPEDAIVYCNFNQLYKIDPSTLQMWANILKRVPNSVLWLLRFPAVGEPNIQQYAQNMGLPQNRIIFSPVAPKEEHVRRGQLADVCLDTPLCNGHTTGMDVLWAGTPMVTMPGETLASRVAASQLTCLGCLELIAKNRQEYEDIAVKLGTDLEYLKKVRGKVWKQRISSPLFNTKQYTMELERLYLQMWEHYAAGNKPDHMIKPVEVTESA
Read-out: binding
Method: phage display NGS
Form: peptide
Tested at: concentration not given
Notes: normalized abundance
Baseline: input library
For `YQAVPRFHVEHTHHD`, “enrichment fold change” read 9.12.
`HGTHTAGAAPHILHH`: “enrichment fold change” 8.26.
Under “enrichment fold change”, `ASPSYVPHYQMVYKI` is recorded as 13.4.
`ANYLPMYQMPVTVY`: “enrichment fold change” 3.23.
`GMYHHHERTWNQYQH` — result for “enrichment fold change”: 9.33.
`YPPVYVIQIPMAQQH`: “enrichment fold change” 5.97.

Block 2
Target: CCND1, cyclin fold, Cln2 fusion (human)
Method: yeast growth competition, sequencing
Matrix: yeast
Notes: strong parent motif
Baseline: not given
Reading: higher = stronger binding
Starting sequence: viral docking peptide; YKVKRRLVFGADD
Under “normalised enrichment score”, `YKVKERLVFGADD [R5E]` is recorded as 0.358.
`YKVKRRLVFCADD [G10C]`: “normalised enrichment score” 1.31.
Under “normalised enrichment score”, `YKVKRRLVFGCDD [A11C]` is recorded as 2.04.
`YVVKRRLVFGADD [K2V]` — result for “normalised enrichment score”: 1.28.
`YKVKRRLVFGAAD [D12A]` — result for “normalised enrichment score”: 1.18.
`YKVKRRLVFGRDD [A11R]` — result for “normalised enrichment score”: 1.28.
`YPVKRRLVFGADD [K2P]` — result for “normalised enrichment score”: 2.85.
Under “normalised enrichment score”, `YKVKRRSVFGADD [L7S]` is recorded as 0.352.
Under “normalised enrichment score”, `YKVKRRLKFGADD [V8K]` is recorded as 1.11.
`YKVKRREVFGADD [L7E]`: “normalised enrichment score” 0.0644.
`YKVTRRLVFGADD [K4T]` — result for “normalised enrichment score”: 0.591.
Under “normalised enrichment score”, `YKVKRRLVFGDDD [A11D]` is recorded as 3.95.
For `YKVKRTLVFGADD [R6T]`, “normalised enrichment score” read 0.367.
Under “normalised enrichment score”, `YKVKRRLVFGEDD [A11E]` is recorded as 4.01.
Under “normalised enrichment score”, `YKVKRRLVGGADD [F9G]` is recorded as 0.124.
For `YKNKRRLVFGADD [V3N]`, “normalised enrichment score” read 0.39.
For `YKEKRRLVFGADD [V3E]`, “normalised enrichment score” read -0.185.
`YKVKRRLVFEADD [G10E]`: “normalised enrichment score” 3.29.
For `YKVVRRLVFGADD [K4V]`, “normalised enrichment score” read 0.275.

Block 3
Target: Prothrombin, mature alpha-thrombin (F2, Homo sapiens, UniProt P00734)
Method: aptamer microarray, sandwich
Form: DNA with 2'F-ANA
Matrix: in vitro
Tested at: 200 nM
Notes: whole 15-mer aptamer, many near background
Added: Cy3 exosite-II aptamer, 400 nM
Reading: higher = stronger binding
Oligonucleotide: GGTTGGTGTGGTTGG
For `2'F-ANA at 1 2 6 7 8 9 12 13 14`, “mean fluorescence intensity” read 69.3 a.u.
`2'F-ANA at 4 5 8 9 10 11 15`: “mean fluorescence intensity” 116 a.u.
For `2'F-ANA at 1 5 9 12 13 14`, “mean fluorescence intensity” read 45.3 a.u.
For `2'F-ANA at 1 4 5 6 7 9 11 13 15`, “mean fluorescence intensity” read 171 a.u.
For `2'F-ANA at 1 3 4 6 8 13 15`, “mean fluorescence intensity” read 156 a.u.
`2'F-ANA at 1 2 6 7 8 10 12`: “mean fluorescence intensity” 127 a.u.
`2'F-ANA at 5 7 8 9 13 15`: “mean fluorescence intensity” 59.2 a.u.
For `2'F-ANA at 6 9 10 15`, “mean fluorescence intensity” read 161 a.u.

Further values, each from its own experiment
SLC6A2: Sodium-dependent noradrenaline transporter (SLC6A2, Homo sapiens, UniProt P23975)
Chain of UniProt P23975 (whole entry, looked up): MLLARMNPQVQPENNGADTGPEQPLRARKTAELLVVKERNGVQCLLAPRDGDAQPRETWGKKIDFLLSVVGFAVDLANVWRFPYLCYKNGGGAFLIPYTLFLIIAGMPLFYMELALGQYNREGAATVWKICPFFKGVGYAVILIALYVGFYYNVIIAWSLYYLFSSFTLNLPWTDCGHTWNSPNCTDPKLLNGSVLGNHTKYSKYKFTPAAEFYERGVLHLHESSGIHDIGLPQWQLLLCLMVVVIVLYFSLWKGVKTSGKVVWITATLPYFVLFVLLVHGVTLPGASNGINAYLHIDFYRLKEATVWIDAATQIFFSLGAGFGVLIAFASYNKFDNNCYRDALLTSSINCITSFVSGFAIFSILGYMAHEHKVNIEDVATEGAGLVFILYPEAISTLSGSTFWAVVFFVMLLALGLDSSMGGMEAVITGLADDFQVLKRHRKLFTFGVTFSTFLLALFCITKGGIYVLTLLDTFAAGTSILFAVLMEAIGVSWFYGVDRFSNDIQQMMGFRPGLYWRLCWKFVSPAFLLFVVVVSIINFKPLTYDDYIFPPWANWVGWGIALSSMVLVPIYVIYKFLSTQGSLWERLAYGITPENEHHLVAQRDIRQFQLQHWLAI
With O=C(N[C@H]1CCCCC/C=C\C2C[C@@]2(C(=O)O)NC(=O)[C@@H]2C[C@@H](Oc3ccncc3)CN2C1=O)OC1CCCC1 (some centres unmarked) the inhibition was -6.94% (SLC6A2; cell-free assay; 10 µM).
`COX7A2L (Homo sapiens, UniProt O14548)` — result for cross-linked residues: “K27 to E171” (UQCRC1 (Homo sapiens, UniProt P31930); cross-linking MS; cell fractions; added: DMTMM).
CCC(F)(F)c1cc(N2CCC(S(C)(=O)=O)CC2)nc2sc(C(N)=O)c(N)c12 has an inhibition of 8.84% (SLC6A2; cell-free assay; 10 µM).
`H1-4 (Homo sapiens, UniProt P10412)`: interaction screen “cross-linked” (H2AC20 (Homo sapiens, UniProt Q16777); cross-linking MS; hits only).
For c1ccc(N2CCN(Cc3nc4ccccc4[nH]3)CC2)nc1, the inhibition was -14.8% (SLC6A2; cell-free assay; 10 µM).
For `RRP9 (Homo sapiens, UniProt O43818)`, cross-linked residues read “K97 to K210” (NGDN (Homo sapiens, UniProt Q8NEJ9); cross-linking MS; cell fractions; added: DSSO).
O=C(Nc1cnc(Oc2ccc(F)cc2)nc1)N1CCc2ncccc2[C@@H]1c1ccc(F)cc1 gave a remaining binding of 95% (Calcium-dependent protein kinase 1 (CDPK1, Plasmodium falciparum, UniProt P62344); cell-free assay, competition with immobilised ligand; 1 µM).
`RPRD2 (Homo sapiens, UniProt Q5VT52)`: cross-linked residues “T216 to K113” (PFDN2 (Homo sapiens, UniProt Q9UHV9); cross-linking MS; cell fractions; added: DSSO).

Excerpt of the above (block 2):
Under “normalised enrichment score”, `YKVKRRLVGGADD [F9G]` is recorded as 0.124.
`YKVKRRLVFGRDD [A11R]` — result for “normalised enrichment score”: 1.28.
`YPVKRRLVFGADD [K2P]` — result for “normalised enrichment score”: 2.85.
`YKVKRRLVFGAAD [D12A]` — result for “normalised enrichment score”: 1.18.
